{"data": "Published values pooled from the literature", "note": "Parts stem from different laboratories: compare values within a part only."}
{"data": "Sample 1", "target": "PABPC1L2, full length, GST fusion (mouse, UniProt A0ABA7IW68)", "technique": "RNAcompete", "form": "RNA", "sample": "in vitro", "concentration": "20 nM", "notes": "7-mer, probes averaged, single round", "relative to": "mean of 7-mers", "reading": "higher = stronger binding", "Target sequence (chain)": "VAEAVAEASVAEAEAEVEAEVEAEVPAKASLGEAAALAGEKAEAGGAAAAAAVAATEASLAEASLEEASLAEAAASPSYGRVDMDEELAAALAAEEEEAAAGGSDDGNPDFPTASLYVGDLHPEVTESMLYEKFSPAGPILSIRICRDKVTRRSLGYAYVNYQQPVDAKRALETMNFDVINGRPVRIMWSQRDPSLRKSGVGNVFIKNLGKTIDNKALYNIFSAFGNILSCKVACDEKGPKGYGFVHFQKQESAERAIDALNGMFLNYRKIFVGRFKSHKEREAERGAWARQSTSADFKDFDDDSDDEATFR"}
{"Sequence": "AGAGUUU", "7-mer Z-score": -0.412}
{"Sequence": "AUCCGGC", "7-mer Z-score": -0.26}
{"Sequence": "CUCCGCG", "7-mer Z-score": -0.371}
{"data": "Further values, each from its own experiment", "MAX full length": "Protein max, full length (MAX, Homo sapiens, UniProt P61244-2, residues 1-151)"}
{"Molecule": "GGCATCAC", "target": "MAX full length", "test": "protein-binding microarray", "test system": "double-stranded DNA, one strand shown, in vitro", "conditions": "not given, k-mer, scored over probes, only values ≥0.25", "scale": "higher = stronger binding", "quantity": "E-score", "value": 0.27}
{"Molecule": "GGGAGUUCUACAGUCCGACGAUCGGUGCCCACCUGGGCUAUGUGGGGAGCACCACUGUCUCGGGAUGCGCGAAUUUUUUUUUUUUUUUUAAUUAACAGGGCAUUAGAAGAUGAUUUUGCCAAAAUUGUCAUGAUGGAAUUCUCGGGUGCCAA", "target": "RNA binding protein fox-1 homolog 2, RRM domain, GST-SBP tag (RBFOX2, Homo sapiens, UniProt O43251-10, residues 100-194)", "test": "RNA Bind-n-Seq", "test system": "RNA, in vitro", "conditions": "365 nM, natural RNA segment, single round, ends assumed", "scale": "relative to: no-protein control, higher = stronger binding", "quantity": "RBNS enrichment (R)", "value": 1.43}
{"Molecule": "GTGACCAC", "target": "MAX full length", "test": "protein-binding microarray", "test system": "double-stranded DNA, one strand shown, in vitro", "conditions": "not given, k-mer, scored over probes, only values ≥0.25", "scale": "higher = stronger binding", "quantity": "E-score", "value": 0.341}
{"Molecule": "PhoQ, residues 284 288 289 292 302 303 AGCYAI", "target": "PhoP, residues 12 14 15 18 19 TTLRV (Escherichia coli, UniProt P23836)", "test": "Sort-seq, item: YFP reporter", "test system": "E. coli", "conditions": "PhoQ-PhoP variant library, with: 10 µM Mg2+", "scale": "relative to: high Mg2+ state, higher = stronger signaling", "quantity": "fold induction", "value": 3.29}
{"Molecule": "AAAGCATG", "target": "MAX full length", "test": "protein-binding microarray", "test system": "double-stranded DNA, one strand shown, in vitro", "conditions": "not given, k-mer, scored over probes, only values ≥0.25", "scale": "higher = stronger binding", "quantity": "E-score", "value": 0.449}
{"note": "Some of these lines once more (sample 1):"}
{"Sequence": "CUCCGCG", "7-mer Z-score": -0.371}
